Measurements gathered from unrelated publications.
Parts stem from different laboratories: compare values within a part only. Substitutions count along the parent as printed.

Block 1
Target: CCNE2, cyclin fold, Cln2 fusion (human)
Technique: yeast growth competition, sequencing
Matrix: yeast
Notes: strong parent motif
Baseline: not given
Direction: higher = stronger binding
Quantity: normalised enrichment score
Starting sequence: E2F1 docking peptide (human); PPVKRRLDLETDH
PPVLRRLDLETDH [K4L]: 0.263
PPVKRRLDLETDG [H13G]: 1.38
PPVKRGLDLETDH [R6G]: 0.185
KPVKRRLDLETDH [P1K]: 1.59
PPVKRRLFLETDH [D8F]: 6.85
PPVKHRLDLETDH [R5H]: -0.0795
PPVKERLDLETDH [R5E]: 0.426
PPVKRRLDLEPDH [T11P]: 2.22
PHVKRRLDLETDH [P2H]: 1.48
PPVKRRLSLETDH [D8S]: 1.47
PPKKRRLDLETDH [V3K]: 1.39
PPNKRRLDLETDH [V3N]: 0.595
PPVKCRLDLETDH [R5C]: 0.159
PPVKRRLDLETDR [H13R]: 1.22
PEVKRRLDLETDH [P2E]: 0.61
PPVKRRLDLETDP [H13P]: 1.64
APVKRRLDLETDH [P1A]: 1.82
GPVKRRLDLETDH [P1G]: 1.42
PPDKRRLDLETDH [V3D]: -0.362
PPVKRRLLLETDH [D8L]: 2.65
PPVGRRLDLETDH [K4G]: -0.0652
PPVKRRSDLETDH [L7S]: -0.455
PPVKRRLDLETDF [H13F]: 0.565
PPVKRRLDLETTH [D12T]: 0.993
EPVKRRLDLETDH [P1E]: 0.649

Block 2
Target: RNA binding protein fox-1 homolog 2, RRM domain, GST-SBP tag (RBFOX2, Homo sapiens, UniProt O43251-10, residues 100-194)
Technique: RNA Bind-n-Seq
Molecule type: RNA
Matrix: in vitro
Tested at: 365 nM
Notes: natural RNA segment, single round, ends assumed
Baseline: no-protein control
Direction: higher = stronger binding
Quantity: RBNS enrichment (R)
Shared flanks, not repeated: GGGAGUUCUACAGUCCGACGAUC … UGGAAUUCUCGGGUGCCAA
Residues (chain): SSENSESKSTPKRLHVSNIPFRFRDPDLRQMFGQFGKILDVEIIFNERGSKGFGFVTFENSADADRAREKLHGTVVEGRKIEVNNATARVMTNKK
UGAUGGUCAGUGAGGAAGCUGGCCAGCAACUGGAUCCUCCAGACCCCUCUGCUUCAGGAAGGCCCUAUAGGGCCCACCUUCCCGCCCUGCCCACCUGGCCUUUGCACUUC: 0.351
CCAUAUGGCAAAGGCCUUUAUUGUGUUAAAUAACUUAGUAUCUCAUAUAUACAUAUAUAUGCACCUAUAUAACGUGUAUAUAUAUAAAUGCAGCCAUUGCUAUUGCAAUU: 0.38
AUUCUAUUUUUAACCAAAAGUAUACAUUUUACUUUGGCAUGAAAAAUGAUCCCCUUGACUGCAUCAUGCAUGUGCGGAAAAAAUAAAUCCAGAAGUAGCAGAACCCUAGC: 11
ACAUAAUAAUAUGUUGCAUGCAGUUAUAUUUUCUAUUUAGUCUGUAUAUUUUGUUCUUCAUAGUCUGUUUUUUCUAGCAUGCUUGAUUUAGGAGAGAAUAAAGGGCUAUA: 15.2
CUGGGCACCUGCUGCUGUUAGGGCCAAUGCAUAGUCUCAGCACCGGUGUCCUAAGGUUAAGGCGGUGCGCCUUGUCAUGUGCUCCUUGUACCAUGCCAUCUGUGCCAGUG: 0.647
UAUUUAAAACAAAAAACAAAACUACAAUGAAACUUGGGAGUCCUUUUCAUGUAGAGGAAGGUUAUCCUGUAGCAUAAUGUAUGCACACGGUCAUCUAGUACCUGAUUGGA: 0.787
CUUAAAACCUGGCUGGACCCCCAUGAGUCCACGCAGAGUCAAUAACUCACCUGUCAUGCUGUUCCCAGGAGGGACAGCUUGGUAGGAACUUUCUGGGGUUUGACUGUUAC: 0.313
CUCUAGUGUUCAGUUGUUGAUGUGCCCCUGCCCACUGCCUGCUCGAGGAAUACCUCUGUUCUACCCAGAAGGAGGGAGGGACAGCUUAGUAGCCCUAGGAAGGAGCUGAG: 0.632

Block 3
Target: ABI1, truncated, D143A, DHFR fusion (Arabidopsis thaliana)
Technique: DHFR PCA, deep sequencing
Matrix: yeast
Notes: methotrexate growth selection, single substitutions
With: (+)-ABA 4.8 µM
Baseline: wild-type fitted maximum
Direction: higher = stronger binding
Quantity: relative binding score
Starting sequence: PYL1, truncated, DHFR fusion (Arabidopsis thaliana); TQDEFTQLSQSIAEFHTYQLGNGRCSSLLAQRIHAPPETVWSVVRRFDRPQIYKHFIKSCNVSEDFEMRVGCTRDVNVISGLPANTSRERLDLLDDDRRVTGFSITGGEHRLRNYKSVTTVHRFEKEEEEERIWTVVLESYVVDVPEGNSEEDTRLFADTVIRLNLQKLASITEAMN
Q31Y: 17.3%
A13D: 65.4%
V62E: 5.22%
G81T: 9.29%
F15S: 12.1%
E139D: 0.935%
K58D: 29.8%
T154R: -0.813%
S117M: -9.69%
M68Y: 45.3%
T17N: 35.5%
R88W: 16.9%
P146D: -12.7%
P50T: -18.8%
T17S: 62.2%

Block 4
Target: CRIPT, C-terminal peptide
Technique: DHFR complementation, deep sequencing
Matrix: yeast
Notes: single substitutions, model-inferred values
Baseline: wild type
Direction: higher = weaker binding
Quantity: binding free energy change
Starting sequence: ERBIN, PDZ domain 1 (human); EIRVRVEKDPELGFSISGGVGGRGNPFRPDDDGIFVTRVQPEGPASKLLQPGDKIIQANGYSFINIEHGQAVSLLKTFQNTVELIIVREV; partner TKNYKQTSV
S73L: 0.0983 kcal/mol
V20C: 0.143 kcal/mol
L49D: 0.746 kcal/mol
F63H: 0.841 kcal/mol
N25L: 1.04 kcal/mol
I85Y: -0.0477 kcal/mol
N59G: 0.142 kcal/mol
I66Y: -0.0975 kcal/mol
R3H: 0.0219 kcal/mol
V72A: -0.15 kcal/mol
G13R: 0.483 kcal/mol
E42Q: 0.0946 kcal/mol
L75Y: 1.03 kcal/mol
P44I: 1.2 kcal/mol
T81K: 0.0685 kcal/mol
K76D: 1.24 kcal/mol

Repeated from above (block 4):
L49D: 0.746 kcal/mol
F63H: 0.841 kcal/mol
N25L: 1.04 kcal/mol
I85Y: -0.0477 kcal/mol
N59G: 0.142 kcal/mol
I66Y: -0.0975 kcal/mol
R3H: 0.0219 kcal/mol
V72A: -0.15 kcal/mol
G13R: 0.483 kcal/mol
